Published values from different studies.
A part holds a random share of what one study measured.
UniProt Q9Y5S2, sequence (whole entry, looked up): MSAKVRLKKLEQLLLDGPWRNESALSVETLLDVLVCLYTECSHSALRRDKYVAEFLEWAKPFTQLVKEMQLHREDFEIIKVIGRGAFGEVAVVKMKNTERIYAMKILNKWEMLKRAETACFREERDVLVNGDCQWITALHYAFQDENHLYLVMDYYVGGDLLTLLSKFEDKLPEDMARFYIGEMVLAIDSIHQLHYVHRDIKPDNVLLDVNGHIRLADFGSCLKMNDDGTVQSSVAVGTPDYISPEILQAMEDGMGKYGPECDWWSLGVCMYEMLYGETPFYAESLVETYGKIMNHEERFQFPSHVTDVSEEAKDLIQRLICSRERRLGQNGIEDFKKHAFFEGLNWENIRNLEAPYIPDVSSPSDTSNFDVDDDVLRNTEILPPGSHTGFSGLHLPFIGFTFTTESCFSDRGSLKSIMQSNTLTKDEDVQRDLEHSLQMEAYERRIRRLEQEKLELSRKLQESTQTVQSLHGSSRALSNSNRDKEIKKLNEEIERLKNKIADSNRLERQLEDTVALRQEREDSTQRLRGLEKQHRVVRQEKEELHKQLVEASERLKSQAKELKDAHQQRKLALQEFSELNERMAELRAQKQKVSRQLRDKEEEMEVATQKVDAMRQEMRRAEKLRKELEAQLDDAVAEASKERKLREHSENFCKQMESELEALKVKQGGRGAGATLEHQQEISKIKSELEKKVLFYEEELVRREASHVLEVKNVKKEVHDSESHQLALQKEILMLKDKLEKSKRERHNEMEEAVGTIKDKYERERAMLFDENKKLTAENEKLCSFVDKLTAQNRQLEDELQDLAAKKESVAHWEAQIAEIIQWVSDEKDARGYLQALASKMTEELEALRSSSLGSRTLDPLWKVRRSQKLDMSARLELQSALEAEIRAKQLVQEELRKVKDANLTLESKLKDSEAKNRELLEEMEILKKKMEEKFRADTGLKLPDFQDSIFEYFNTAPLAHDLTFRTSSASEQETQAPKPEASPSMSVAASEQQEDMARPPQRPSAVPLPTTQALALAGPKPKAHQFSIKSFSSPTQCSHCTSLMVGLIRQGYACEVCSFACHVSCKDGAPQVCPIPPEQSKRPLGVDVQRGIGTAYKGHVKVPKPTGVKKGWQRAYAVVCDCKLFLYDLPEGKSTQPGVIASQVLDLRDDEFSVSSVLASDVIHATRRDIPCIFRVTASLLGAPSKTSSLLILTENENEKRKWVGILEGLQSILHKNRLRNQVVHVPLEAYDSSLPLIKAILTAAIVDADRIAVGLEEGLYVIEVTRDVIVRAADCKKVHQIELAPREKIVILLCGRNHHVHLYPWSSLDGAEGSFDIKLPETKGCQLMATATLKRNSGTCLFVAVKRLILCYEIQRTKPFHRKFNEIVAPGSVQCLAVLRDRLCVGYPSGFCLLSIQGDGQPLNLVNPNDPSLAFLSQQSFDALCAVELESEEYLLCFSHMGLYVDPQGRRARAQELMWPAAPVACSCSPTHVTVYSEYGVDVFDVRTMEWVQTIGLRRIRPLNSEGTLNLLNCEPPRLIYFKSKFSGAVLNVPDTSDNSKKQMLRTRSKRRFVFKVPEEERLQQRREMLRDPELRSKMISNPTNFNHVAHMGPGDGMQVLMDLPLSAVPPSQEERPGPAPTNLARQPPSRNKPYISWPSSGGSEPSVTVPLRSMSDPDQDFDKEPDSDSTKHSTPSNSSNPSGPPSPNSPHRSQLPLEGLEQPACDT
UniProt Q16832, sequence (whole entry, looked up): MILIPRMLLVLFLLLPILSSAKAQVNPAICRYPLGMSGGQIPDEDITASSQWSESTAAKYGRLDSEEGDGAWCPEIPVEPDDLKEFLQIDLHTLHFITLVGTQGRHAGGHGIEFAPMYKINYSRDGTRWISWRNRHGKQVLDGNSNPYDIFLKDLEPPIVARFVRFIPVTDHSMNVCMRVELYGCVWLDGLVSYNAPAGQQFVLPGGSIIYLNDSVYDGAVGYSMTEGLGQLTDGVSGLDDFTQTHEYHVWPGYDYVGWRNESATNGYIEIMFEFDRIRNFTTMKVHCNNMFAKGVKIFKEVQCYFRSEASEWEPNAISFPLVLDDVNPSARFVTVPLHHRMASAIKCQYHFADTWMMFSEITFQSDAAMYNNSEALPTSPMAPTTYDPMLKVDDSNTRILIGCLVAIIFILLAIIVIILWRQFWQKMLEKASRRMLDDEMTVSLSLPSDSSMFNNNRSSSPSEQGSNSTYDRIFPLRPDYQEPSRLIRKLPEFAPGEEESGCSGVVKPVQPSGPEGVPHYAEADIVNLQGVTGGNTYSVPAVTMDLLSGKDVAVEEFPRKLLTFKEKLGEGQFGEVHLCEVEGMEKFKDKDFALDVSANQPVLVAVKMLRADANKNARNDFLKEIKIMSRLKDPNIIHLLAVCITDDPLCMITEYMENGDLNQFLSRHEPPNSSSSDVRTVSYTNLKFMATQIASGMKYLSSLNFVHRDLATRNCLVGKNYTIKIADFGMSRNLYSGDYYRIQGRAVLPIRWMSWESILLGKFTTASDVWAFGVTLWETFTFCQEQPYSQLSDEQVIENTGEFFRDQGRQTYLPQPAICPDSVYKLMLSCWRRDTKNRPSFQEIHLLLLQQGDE
UniProt Q16566, sequence (whole entry, looked up): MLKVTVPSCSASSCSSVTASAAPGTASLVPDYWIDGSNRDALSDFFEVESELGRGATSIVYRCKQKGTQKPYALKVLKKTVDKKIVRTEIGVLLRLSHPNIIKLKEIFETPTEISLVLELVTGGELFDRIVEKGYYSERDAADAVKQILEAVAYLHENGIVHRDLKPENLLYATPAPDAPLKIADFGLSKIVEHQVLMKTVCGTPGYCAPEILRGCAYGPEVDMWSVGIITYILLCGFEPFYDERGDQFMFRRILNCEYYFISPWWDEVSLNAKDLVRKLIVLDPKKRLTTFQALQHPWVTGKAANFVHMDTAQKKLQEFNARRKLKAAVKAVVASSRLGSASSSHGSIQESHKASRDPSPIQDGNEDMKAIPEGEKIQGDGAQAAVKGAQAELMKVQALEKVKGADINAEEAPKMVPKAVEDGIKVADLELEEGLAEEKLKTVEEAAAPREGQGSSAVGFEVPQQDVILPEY
UniProt Q9H4B4, sequence (whole entry, looked up): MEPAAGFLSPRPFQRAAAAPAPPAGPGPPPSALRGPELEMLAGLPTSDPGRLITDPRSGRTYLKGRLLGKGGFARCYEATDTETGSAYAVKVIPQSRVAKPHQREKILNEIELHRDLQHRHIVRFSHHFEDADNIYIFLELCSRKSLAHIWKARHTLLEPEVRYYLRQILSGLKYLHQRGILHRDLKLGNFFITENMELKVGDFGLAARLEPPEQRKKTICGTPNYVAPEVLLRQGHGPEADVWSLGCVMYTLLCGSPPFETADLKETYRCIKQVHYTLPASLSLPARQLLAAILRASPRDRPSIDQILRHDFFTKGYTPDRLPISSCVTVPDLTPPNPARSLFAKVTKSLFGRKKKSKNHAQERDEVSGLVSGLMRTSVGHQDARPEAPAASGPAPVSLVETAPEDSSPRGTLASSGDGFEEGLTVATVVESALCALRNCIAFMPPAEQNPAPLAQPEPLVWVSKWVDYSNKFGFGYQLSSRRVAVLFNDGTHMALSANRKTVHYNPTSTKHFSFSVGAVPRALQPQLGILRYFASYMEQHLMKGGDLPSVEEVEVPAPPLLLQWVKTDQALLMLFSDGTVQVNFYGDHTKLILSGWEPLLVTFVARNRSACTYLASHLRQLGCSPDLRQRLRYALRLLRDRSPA
UniProt P51956, sequence (whole entry, looked up): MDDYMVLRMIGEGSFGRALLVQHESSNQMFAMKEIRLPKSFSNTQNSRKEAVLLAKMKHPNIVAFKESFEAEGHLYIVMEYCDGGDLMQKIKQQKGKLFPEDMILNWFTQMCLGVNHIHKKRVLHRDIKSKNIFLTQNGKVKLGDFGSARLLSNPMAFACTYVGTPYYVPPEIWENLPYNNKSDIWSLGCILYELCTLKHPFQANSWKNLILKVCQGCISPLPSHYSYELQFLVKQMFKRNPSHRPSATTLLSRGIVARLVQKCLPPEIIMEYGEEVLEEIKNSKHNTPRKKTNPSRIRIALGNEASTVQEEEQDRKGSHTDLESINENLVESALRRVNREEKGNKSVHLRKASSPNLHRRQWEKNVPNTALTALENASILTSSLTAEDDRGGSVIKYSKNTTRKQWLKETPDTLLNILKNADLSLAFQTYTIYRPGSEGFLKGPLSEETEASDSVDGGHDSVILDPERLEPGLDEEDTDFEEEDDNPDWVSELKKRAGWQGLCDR

Sample 1 — technique: protein-binding microarray; form: double-stranded DNA, one strand shown; medium: in vitro; concentration: 250 nM; setting: 60-bp whole probe; with: salmon DNA 0.4 mg/ml; baseline: random background probes; reading: higher = stronger binding; shared flanks, not repeated: GCCTAGCAC … GTCTTGATTCGCTTGACGCTGCTG
Target: Interferon regulatory factor 7, full length, phosphomimetic (IRF7, Homo sapiens, UniProt Q92985, residues 1-503, S101K/S471D/S472D/S475D/S476D/S477D/S483D/S484D/S487D)
Construct (chain): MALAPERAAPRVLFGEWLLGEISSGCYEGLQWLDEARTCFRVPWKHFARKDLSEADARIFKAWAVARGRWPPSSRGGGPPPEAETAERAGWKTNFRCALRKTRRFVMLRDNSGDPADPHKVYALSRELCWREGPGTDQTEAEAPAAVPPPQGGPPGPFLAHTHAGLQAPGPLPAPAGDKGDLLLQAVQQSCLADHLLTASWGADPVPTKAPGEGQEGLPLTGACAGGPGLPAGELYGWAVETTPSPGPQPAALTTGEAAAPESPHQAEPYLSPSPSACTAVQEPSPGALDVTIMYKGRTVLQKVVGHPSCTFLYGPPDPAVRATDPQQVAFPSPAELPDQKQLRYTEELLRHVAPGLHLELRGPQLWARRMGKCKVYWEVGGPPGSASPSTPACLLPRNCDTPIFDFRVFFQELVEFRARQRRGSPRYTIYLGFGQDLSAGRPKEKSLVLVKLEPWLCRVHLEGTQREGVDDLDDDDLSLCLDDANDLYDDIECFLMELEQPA
Strand	log fluorescence [z-score]
TCATACTTCTCTTTTGGACTGTGCTAG	0.779
TACGGTATCGGTATCGGGACGTGCTAG	1.34
TTAGGTAGCGGTCTCGGTTAGTGCTAG	0.843
GACGAACTGGGGTATCGAGAGGTGCTA	-0.706
TTAGAACTGAGTATCGATTAGTGCTAG	0.591
TTTGCATTGCTTCTATAGGCGTGCTAG	-0.469
TGAACTTCGGCCTCTAGGTTTGTGCTA	-0.598
TTAGGACTGGGGTTCCGGTTAGTGCTA	0.842

Sample 2 — technique: RNAcompete; form: RNA; medium: in vitro; concentration: 20 nM; setting: 7-mer, probes averaged, single round; baseline: mean of 7-mers; reading: higher = stronger binding
Target: PABPC1L2, full length, GST fusion (mouse, UniProt A0ABA7IW68)
Target sequence (chain): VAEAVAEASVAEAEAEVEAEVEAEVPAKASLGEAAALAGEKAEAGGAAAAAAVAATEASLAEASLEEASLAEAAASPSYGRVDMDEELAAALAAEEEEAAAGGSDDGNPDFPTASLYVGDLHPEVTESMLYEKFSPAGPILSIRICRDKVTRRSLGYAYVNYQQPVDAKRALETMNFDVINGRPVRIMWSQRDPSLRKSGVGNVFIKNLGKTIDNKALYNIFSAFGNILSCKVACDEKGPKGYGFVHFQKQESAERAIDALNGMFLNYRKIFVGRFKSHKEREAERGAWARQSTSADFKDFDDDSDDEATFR
Strand	7-mer Z-score
UGCAAUG	-0.0192
GGAAAUA	0.562
CUUACCA	-0.291
CGAAGGC	-0.0573
GAUUUAU	-0.0228
CGCGGCU	-0.171
UCGCGUG	-0.238
GAAACCU	-0.0971

Sample 3 — SMILES: O=C(c1ccccc1)c1ccc(N2CCOCC2)cc1O; effect on: enzyme activity; mode: inhibitor; concentration: 0.5 µM; baseline: control
target	remaining activity [%]
MAPK1 (Homo sapiens, UniProt P28482)	96.7
MET (Homo sapiens, UniProt P08581)	115
NEK3 (Homo sapiens, UniProt P51956)	95.6
DDR2 (Homo sapiens, UniProt Q16832)	103
CDC42BPB (Homo sapiens, UniProt Q9Y5S2)	90.9
CAMK4 (Homo sapiens, UniProt Q16566)	94.7
PLK3 (Homo sapiens, UniProt Q9H4B4)	99.1

Sample 4 — effect on: binding; technique: radioligand binding; concentration: 10 µM
Target: D(4) dopamine receptor (DRD4, Homo sapiens, UniProt P21917)
UniProt P21917, sequence (whole entry, looked up): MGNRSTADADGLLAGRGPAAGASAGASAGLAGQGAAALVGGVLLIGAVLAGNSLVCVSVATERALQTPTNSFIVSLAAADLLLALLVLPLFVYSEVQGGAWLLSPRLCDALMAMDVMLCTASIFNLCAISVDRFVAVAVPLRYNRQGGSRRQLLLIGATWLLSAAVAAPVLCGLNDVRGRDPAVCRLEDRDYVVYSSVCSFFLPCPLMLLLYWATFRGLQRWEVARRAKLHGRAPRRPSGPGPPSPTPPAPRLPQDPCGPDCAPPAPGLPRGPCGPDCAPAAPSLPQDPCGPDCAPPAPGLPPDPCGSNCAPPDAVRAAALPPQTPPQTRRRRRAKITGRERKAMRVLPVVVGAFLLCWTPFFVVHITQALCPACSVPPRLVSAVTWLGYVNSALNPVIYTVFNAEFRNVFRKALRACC
Structure (SMILES)	inhibition [%]
C[C@H](NC(=O)c1cnc2n1[C@](C)(Cc1ccc(C#N)cc1)C(=O)N2c1cc(Cl)c(F)c(Cl)c1)C(=O)NC1(c2ccccn2)CC1	-2.68
CS(=O)(=O)NCC[C@H](NC(=O)c1cncc2c1cnn2-c1ccc(F)cc1)c1ccnc(S(C)(=O)=O)c1	-5.61
COc1nc2ccc([C@@](O)(c3ccccc3)C3CCN(C(C)=O)CC3)cc2c(Cl)c1Cc1ccc(-n2cccn2)cc1	-5.45
O=C([C@H]1C[C@H](O)CN1c1ccc(Cl)cc1)N1CC2COCC(C1)N2Cc1ccc(Cl)cc1	51.5
CC(=O)c1c(NS(C)(=O)=O)c2cc(-c3ccc(Cl)cc3)c(-c3ccc(Cl)cc3Cl)nc2n(C)c1=O	17.1
C[C@@]1(Cc2ccc(C#N)cc2)C(=O)N(c2cc(Cl)cc(Cl)c2)c2ncc(C(=O)NC3(c4nc(C5CCC5)no4)CC3)n21	13.6
O=C(Nc1cccnn1)N1CC(CC=Cc2cncc(Oc3ccc(C(F)(F)F)cn3)n2)C1	12.3
COc1cc(-c2cn(C3CCc4ccccc4N(CC(F)(F)F)C3=O)nn2)ccc1-n1ccc(C)n1 (stereo not shown)	52.4
